Measurements from different studies.
Numbered parts are unrelated; each lists some results of a single study. Changes are numbered by the printed parent chain.
UniProt Q9SKN5, sequence (whole entry, looked up): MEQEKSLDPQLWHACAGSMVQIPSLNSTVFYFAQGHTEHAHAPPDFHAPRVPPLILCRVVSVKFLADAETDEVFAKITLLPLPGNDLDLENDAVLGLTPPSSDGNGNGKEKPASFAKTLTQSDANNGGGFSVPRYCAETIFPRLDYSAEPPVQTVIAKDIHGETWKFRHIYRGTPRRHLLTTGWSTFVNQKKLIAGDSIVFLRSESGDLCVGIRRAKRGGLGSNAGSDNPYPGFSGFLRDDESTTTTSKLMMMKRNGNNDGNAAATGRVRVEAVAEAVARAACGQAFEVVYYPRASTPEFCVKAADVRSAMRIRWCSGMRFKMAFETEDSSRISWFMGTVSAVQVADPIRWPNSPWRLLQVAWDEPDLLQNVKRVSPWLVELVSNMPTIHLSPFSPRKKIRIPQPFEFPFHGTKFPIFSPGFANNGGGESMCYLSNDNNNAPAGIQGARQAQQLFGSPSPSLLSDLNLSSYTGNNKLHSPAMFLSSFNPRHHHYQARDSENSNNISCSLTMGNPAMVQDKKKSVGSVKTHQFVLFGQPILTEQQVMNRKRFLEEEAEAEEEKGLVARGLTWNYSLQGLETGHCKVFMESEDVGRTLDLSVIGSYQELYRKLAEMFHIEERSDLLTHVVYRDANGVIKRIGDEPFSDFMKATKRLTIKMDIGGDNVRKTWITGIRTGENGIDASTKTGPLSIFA
UniProt O24410, sequence (whole entry, looked up): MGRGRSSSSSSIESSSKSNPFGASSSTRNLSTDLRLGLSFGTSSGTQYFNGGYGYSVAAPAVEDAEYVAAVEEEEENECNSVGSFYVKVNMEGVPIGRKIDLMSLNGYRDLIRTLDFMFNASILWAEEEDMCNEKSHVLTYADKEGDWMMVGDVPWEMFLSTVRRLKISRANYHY
UniProt Q9XFM0, sequence (whole entry, looked up): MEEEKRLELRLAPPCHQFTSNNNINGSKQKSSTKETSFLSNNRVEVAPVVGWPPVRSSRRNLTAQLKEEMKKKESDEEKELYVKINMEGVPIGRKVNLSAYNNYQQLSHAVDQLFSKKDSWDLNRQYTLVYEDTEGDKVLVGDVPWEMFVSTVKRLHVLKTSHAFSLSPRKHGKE
UniProt P93022, sequence (whole entry, looked up): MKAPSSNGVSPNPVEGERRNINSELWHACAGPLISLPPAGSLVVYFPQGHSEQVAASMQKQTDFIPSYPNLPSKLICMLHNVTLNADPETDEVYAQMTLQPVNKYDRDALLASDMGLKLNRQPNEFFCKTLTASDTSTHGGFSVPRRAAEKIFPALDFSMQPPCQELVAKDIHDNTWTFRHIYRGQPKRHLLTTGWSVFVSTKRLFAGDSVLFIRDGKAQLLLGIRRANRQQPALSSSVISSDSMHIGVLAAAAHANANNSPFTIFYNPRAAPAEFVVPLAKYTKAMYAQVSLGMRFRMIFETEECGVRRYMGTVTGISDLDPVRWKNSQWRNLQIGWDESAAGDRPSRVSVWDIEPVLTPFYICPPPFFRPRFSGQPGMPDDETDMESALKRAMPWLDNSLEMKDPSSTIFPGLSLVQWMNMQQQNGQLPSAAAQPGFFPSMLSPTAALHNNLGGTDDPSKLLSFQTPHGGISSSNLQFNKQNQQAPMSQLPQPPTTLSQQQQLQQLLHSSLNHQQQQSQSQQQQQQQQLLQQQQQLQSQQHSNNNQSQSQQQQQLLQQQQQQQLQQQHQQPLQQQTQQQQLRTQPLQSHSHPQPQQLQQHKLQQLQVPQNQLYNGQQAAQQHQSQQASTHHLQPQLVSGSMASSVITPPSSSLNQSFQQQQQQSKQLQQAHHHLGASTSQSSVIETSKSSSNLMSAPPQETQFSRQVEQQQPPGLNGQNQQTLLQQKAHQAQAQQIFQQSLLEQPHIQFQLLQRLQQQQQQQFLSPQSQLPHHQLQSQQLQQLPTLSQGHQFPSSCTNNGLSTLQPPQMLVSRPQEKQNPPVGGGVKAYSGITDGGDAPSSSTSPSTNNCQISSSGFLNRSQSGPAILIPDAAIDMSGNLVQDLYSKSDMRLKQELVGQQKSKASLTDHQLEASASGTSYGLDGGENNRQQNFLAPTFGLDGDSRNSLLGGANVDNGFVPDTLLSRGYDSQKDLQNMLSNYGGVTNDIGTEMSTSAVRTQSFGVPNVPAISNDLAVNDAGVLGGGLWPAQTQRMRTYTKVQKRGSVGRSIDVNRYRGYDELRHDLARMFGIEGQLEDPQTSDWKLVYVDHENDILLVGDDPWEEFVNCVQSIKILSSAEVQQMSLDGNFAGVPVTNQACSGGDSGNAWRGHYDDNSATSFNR
UniProt P93024, sequence (whole entry, looked up): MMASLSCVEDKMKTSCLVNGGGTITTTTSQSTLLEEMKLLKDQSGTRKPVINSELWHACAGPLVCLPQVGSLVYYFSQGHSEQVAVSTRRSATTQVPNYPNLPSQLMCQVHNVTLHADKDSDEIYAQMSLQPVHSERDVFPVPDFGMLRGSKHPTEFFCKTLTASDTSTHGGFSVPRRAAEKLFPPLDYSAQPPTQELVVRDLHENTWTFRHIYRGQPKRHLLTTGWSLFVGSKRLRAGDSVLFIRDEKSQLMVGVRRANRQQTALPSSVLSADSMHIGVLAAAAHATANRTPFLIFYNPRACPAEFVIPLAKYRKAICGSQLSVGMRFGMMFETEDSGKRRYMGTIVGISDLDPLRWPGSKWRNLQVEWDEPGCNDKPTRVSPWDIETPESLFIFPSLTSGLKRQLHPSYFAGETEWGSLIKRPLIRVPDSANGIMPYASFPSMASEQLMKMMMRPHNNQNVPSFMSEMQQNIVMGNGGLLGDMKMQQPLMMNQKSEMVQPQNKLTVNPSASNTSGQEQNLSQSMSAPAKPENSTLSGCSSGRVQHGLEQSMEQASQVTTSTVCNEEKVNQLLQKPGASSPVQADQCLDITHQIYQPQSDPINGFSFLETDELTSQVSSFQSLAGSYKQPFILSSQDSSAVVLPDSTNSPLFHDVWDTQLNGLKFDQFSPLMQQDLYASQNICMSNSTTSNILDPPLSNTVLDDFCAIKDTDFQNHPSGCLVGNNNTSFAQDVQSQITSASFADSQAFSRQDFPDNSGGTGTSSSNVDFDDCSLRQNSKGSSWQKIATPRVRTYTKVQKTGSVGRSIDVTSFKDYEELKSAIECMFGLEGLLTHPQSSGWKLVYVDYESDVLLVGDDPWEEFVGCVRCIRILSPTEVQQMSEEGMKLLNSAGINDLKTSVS
UniProt O24408, sequence (whole entry, looked up): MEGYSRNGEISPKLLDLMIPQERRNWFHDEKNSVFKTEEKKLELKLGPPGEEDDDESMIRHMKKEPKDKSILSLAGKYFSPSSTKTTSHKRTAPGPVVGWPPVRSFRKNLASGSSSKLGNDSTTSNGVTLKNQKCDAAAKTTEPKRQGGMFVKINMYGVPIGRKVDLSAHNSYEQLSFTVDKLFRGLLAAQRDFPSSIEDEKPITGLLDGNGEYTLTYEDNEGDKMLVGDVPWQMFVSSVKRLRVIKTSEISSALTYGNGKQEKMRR
UniProt Q8LAL2, sequence (whole entry, looked up): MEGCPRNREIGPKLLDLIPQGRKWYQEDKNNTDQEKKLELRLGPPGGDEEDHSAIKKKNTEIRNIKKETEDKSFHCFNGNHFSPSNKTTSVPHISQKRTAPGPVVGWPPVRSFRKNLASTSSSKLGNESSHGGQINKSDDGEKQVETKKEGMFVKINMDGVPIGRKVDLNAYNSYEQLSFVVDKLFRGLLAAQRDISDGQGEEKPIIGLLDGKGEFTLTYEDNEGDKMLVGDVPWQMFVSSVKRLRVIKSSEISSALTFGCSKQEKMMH

Set 1 — target: CCNA1, cyclin fold, Cln2 fusion (human); technique: yeast growth competition, sequencing; sample: yeast; setting: strong parent motif; reference: not given; reading: higher = stronger binding
Parent: E2F1 docking peptide (human); PPVKRRLDFETDH
Variant | normalised enrichment score
PPVKRRLDFMTDH [E10M] | 1.86
PPVKRRLDFETAH [D12A] | 1.97
PPVKRRLDFVTDH [E10V] | 1.51
PPVKRNLDFETDH [R6N] | 0.623
PPVKRRLDFEIDH [T11I] | 1.89
PPVKRRLDPETDH [F9P] | 0.103
PPVKKRLDFETDH [R5K] | 1.59
PPVKRRKDFETDH [L7K] | 0.374
PPVKCRLDFETDH [R5C] | 0.309
PPVKRRLDFYTDH [E10Y] | 1.48
PPVKRRLDFQTDH [E10Q] | 1.99
PPVKRWLDFETDH [R6W] | 0.473
PDVKRRLDFETDH [P2D] | 1.42
PPVKYRLDFETDH [R5Y] | 0.257
PPVARRLDFETDH [K4A] | 1.08
PPVKWRLDFETDH [R5W] | -0.057
PPVYRRLDFETDH [K4Y] | 0.913
PPTKRRLDFETDH [V3T] | 2.08
PPVKRFLDFETDH [R6F] | 0.996
PPVKRRLDFENDH [T11N] | 1.94
PPVKRRLDFETRH [D12R] | 1.78
PHVKRRLDFETDH [P2H] | 1.9
PPVKRRLDIETDH [F9I] | 0.444
PSVKRRLDFETDH [P2S] | 1.82

Set 2 — technique: DHFR PCA, deep sequencing; sample: yeast; added: (+)-ABA 710 µM; reference: wild-type fitted maximum; reading: higher = stronger binding
Target: ABI1, truncated, D143A, DHFR fusion (Arabidopsis thaliana)
Setting: methotrexate growth selection, single substitutions
Parent: PYL1, truncated, DHFR fusion (Arabidopsis thaliana); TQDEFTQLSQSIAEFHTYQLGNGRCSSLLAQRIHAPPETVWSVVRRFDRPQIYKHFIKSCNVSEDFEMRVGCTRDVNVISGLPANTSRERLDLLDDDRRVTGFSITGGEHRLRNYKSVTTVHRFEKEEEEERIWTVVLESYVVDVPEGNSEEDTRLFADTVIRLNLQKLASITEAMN; partner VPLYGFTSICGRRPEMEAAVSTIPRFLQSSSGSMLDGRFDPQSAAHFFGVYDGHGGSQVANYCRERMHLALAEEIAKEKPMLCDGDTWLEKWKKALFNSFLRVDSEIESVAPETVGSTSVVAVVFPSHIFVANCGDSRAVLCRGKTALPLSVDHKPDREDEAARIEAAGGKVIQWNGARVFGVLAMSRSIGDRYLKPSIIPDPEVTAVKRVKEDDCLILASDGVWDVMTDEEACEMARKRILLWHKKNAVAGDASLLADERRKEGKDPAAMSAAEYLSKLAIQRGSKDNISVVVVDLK
Variant | relative binding score [%]
L28P | 2.27
S87Q | 28.7
Y115T | 13
H110M | 60.6
E109Q | 107
K54L | -15.2
G102M | 89.3
Q31L | 73.1
R24F | 89.2
I12R | 91.9
S59P | 33.8
T6R | 110
L82T | 79
Q19C | 99.8
A35Q | 70.3
W41D | -2.49
D92H | 80.7
H122E | 89.8
S80L | 21.3
I105L | 67.9
D75A | 101
N149G | 78.4
T1F | 101
S140C | 8.4
R123W | 84

Set 3 — Sequence: B1 (IAA11); technique: two-hybrid; setting: weak activation fusion; reading: higher = firmer interaction
B1: IAA11 (Arabidopsis thaliana, UniProt Q38829); chain MEGGSASGSASALSNDENLVVSCEDSSSPIGNELELGLTLSLGRKGYRDCRVYADDSSSSSSSSSLSRASVIAGIKRTADSMAATSGQVVGWPPIRTYRMNSMVNQAKASATEDPNLEISQAVNKNRSDSTKMRNSMFVKVTMDGIPIGRKIDLNAHKCYESLSNTLEEMFLKPKLGSRTLETDGHMETPVKILPDGSSGLVLTYEDKEGDWMLVGDVPWGMFIGSVRRLRIMKTSEATGKAQMIL
partner | reference | positive tests
ARF7 1030-1164 (Arabidopsis thaliana, UniProt P93022) | out of 4 tests | 2
ARF5 788-902 (Arabidopsis thaliana, UniProt P93024) | out of 4 tests | 2
IAA18 (Arabidopsis thaliana, UniProt O24408) | out of 4 tests | 1
IAA26 (Arabidopsis thaliana, UniProt Q8LAL2) | out of 2 tests | 0
IAA28 (Arabidopsis thaliana, UniProt Q9XFM0) | out of 4 tests | 2
ARF10 575-693 (Arabidopsis thaliana, UniProt Q9SKN5) | out of 4 tests | 0
IAA20 (Arabidopsis thaliana, UniProt O24410) | out of 4 tests | 0

Set 4 — technique: Sort-seq; item: YFP reporter; sample: E. coli; setting: PhoQ-PhoP variant library; added: 10 µM Mg2+; reference: high Mg2+ state; reading: higher = stronger signaling
Molecule: PhoQ, residues 284 288 289 292 302 303 SIHMAM
target | fold induction
PhoP, residues 12 14 15 18 19 LHHYF (Escherichia coli, UniProt P23836) | 0.197
PhoP, residues 12 14 15 18 19 VGHWL (Escherichia coli, UniProt P23836) | 17.8
PhoP, residues 12 14 15 18 19 NFFVT (Escherichia coli, UniProt P23836) | 14.1
PhoP, residues 12 14 15 18 19 TPWTL (Escherichia coli, UniProt P23836) | 1.74

Set 5 — technique: RNA Bind-n-Seq; form: RNA; sample: in vitro; concentration: 365 nM; reference: no-protein control; reading: higher = stronger binding
Target: RNA binding protein fox-1 homolog 2, RRM domain, GST-SBP tag (RBFOX2, Homo sapiens, UniProt O43251-10, residues 100-194)
Setting: natural RNA segment, single round, ends assumed
Shared flanks, not repeated: GGGAGUUCUACAGUCCGACGAUC … UGGAAUUCUCGGGUGCCAA
Residues (chain): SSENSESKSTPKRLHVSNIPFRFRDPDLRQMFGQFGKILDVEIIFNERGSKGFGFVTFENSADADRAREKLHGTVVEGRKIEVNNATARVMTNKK
Oligonucleotide | RBNS enrichment (R)
GUGCCACUGGCCUGACCCUCGAGACAGCUCAAGGAUCCGUGGUGUGGCCACCUGCCAGACCCCCAAGGAGAGAGGCCAAGAGUGGCCCUGGCACAGUGUGUCUGCUAGCU | 0.356
GGGUCCCCAUGGGGUGGCUCAGAGAUAGGACCCUGGUUUUAAAUCCCUCCCAGCCUGGUGCUGGUGAUGGGCCCUGGCCCUACUCCAGGGCCAAUGCACCCCCGCCUCAC | 0.191
AAUGCCUUAAUGUAAUUAGCCUCAGUUUGAGGACACCAUACAAGACGUGGGACACCAUUCAAUUGAUUGCUUUAAGGAAUUUUUAGAGACAUUAUACAGUAUCCUUUUCA | 0.652
AGCCUUUUAUUGAGUGGGGCAAGUGCUGGGCUGUGGUCGUGCCCUGACAGCAUCUUCCCCAGGCAGCGGCUCUGUGGAGGAGGCCAUACUCCCCUAGUUGGCCACUGGGG | 0.497
UGUACCCUGUACACGUGUUCAUGCUGUGUCUGGCUCUCAUCUGCACAAUCGUGCAUAGAAUUGCCUCAAGUCCUGGUGAGAGAGAUGCCGUGGUACUUUUCCAUUUAGAU | 0.364
GGAAAUAGAGUAGCAGUUGAUAUUUCUAAAUUGUGACCAUUGUCCGAGAUUGCUUUGAGAACUGGUAGUUAUUCUCUUUAUGUUUGGAGGCAGCCAUUAGGCUGUAGGCC | 2.09
UGCGGGACAGUCAUUCUUUACGUUCUCUCUUGAGCUGGUGAGAGAGGAGGAAGAGGGAAGUCAAGAGCAACCUCCAAGGCCUAUGUCAGCCUCUUCUCCUUGGGUCUUGG | 0.754
GGGUUUUGUAUGCCCGUGUUCCUUAAAGCCAAGGGUUUGAAAGCCACGCUGGUCUUCUGAGAUUCCAAGUCCUUCCCCAGCUGACAUGCCCGUAGCCCCUUCCGACUCAG | 0.455
UACACCCCCCCCCACAAGAGGGGUGGAGUUUCUUCCCAACCCAAAUCUGGAGAGGUCAGAAUGGAACUACCUCAGUUGGCACAAACAGAUCAUGGCUCCUAUCAGUCUCA | 0.22
GGUUAUUUCUGCAUGGAAACUCAACUUCUUGGAUUAGCCGUCCCAGUGAAAAUCCUCAUUGUUGGAGUGUAAACCAAAUACGAAGCCCUCUUGCAAAGUAGCCUCUUUCA | 0.594
CCUCUUUCCCACCUGUCCCAGGACCAGAAUCCCAGGGACAGAGGACUGGGUAGCAGGUUCCUUCUGUUGUCCUGUGUGGUGUGUCUACUGUGAGGGUGGGCCCUGAGGAG | 0.303
AUGAAAUAAAAAAAAAAAGGAUGGGUUUUGUAAAAAUAAUAAAAAAAAUAUUUUUAGCAGAACAGGACUUACAGGGUCAUUGUCCCCACAAUGUGCCAGUCGGCUCUUUG | 0.886

Set 6 — target: ATF2, bZIP domain (human); technique: DHFR protein complementation; sample: yeast; reference: wild-type JUN-FOS pair; reading: higher = stronger binding
Setting: single substitutions, most at no-binding floor
Parent: JUN, bZIP domain (human); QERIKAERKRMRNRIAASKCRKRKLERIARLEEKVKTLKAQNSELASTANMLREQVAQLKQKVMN; partner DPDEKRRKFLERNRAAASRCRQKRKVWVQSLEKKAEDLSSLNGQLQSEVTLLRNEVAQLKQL
Variant | binding fitness [natural log]
A29N | -1.34
A57G | -1.39
L31P | -1.48
Q41M | -1.36
K39V | -1.46
E54R | -1.43
R30I | -1.4
N42Q | -1.34
A29F | -1.36
K34H | -1.34
L59P | -1.63
L59R | -1.4
E44T | -1.5
K34R | -1.29
E44V | -1.4
E44K | -1.49
E32C | -1.16
N42W | -1.42
E33R | -1.41
E44G | -1.35
L52M | -1.4
K39P | -1.49
T37D | -1.44
L52E | -1.46
Q55M | -1.44

Set 7 — technique: protein binding microarray; form: double-stranded DNA, one strand shown; sample: in vitro; concentration: not given; reference: not given; reading: higher = stronger binding
Target: Histone acetyltransferase KAT6A, winged helix 1, GST fusion (KAT6A, Homo sapiens, UniProt Q92794, residues 1-85)
Setting: 8-mer, flanks averaged, mean of 2 arrays, mostly near background
Target sequence (chain): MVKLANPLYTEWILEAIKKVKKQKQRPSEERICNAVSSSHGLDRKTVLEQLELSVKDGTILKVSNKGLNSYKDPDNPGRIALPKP
Oligonucleotide | E-score
AGCCAATC | -0.182
AGTCAGAA | -0.0915
AACGCAGG | 0.0782
GGAATACA | -0.124
CCCGTTGA | 0.0739
AAGGTTCA | -0.183
AAAACTCT | -0.0542
CGTAATGC | 0.168
CATGGACG | 0.0427
TAAGCCGA | 0.134
CAATACTC | -0.143
AGCTAGAG | -0.0731
GGCGCCCA | 0.16
AGCTTGGG | -0.178
CAATTGAG | 0.0274
GGAGAACC | -0.0663
TCTGTACA | -0.0321
ATTAACGA | -0.0601
GAAGCAAA | -0.207
GACACTCA | 0.0122
CGTAATGA | 0.132
ACTACGGG | 0.307
CGTGCCAA | -0.156
GCGACAGC | 0.208
ACTATTAA | -0.131
